Measured values from different studies.
Every numbered part comes from another study and shows a few of its results, in no order.
Sequence of UniProt P23975 (whole entry, looked up): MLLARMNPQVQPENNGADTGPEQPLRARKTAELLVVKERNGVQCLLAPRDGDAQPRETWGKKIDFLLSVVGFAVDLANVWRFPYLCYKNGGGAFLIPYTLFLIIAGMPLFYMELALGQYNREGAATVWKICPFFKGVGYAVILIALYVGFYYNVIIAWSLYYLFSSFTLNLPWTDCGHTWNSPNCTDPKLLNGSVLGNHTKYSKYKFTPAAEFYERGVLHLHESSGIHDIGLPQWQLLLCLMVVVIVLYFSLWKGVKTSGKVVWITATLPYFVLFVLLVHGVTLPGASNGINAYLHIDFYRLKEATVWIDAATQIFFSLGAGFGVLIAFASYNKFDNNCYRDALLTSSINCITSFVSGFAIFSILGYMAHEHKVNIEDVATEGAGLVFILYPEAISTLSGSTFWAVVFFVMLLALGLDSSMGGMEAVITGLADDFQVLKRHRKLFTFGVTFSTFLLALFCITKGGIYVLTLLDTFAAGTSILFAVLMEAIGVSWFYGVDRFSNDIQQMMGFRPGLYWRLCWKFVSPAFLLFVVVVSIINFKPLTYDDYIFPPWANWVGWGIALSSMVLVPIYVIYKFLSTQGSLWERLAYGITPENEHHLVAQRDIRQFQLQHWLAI
Sequence of UniProt P31645 (whole entry, looked up): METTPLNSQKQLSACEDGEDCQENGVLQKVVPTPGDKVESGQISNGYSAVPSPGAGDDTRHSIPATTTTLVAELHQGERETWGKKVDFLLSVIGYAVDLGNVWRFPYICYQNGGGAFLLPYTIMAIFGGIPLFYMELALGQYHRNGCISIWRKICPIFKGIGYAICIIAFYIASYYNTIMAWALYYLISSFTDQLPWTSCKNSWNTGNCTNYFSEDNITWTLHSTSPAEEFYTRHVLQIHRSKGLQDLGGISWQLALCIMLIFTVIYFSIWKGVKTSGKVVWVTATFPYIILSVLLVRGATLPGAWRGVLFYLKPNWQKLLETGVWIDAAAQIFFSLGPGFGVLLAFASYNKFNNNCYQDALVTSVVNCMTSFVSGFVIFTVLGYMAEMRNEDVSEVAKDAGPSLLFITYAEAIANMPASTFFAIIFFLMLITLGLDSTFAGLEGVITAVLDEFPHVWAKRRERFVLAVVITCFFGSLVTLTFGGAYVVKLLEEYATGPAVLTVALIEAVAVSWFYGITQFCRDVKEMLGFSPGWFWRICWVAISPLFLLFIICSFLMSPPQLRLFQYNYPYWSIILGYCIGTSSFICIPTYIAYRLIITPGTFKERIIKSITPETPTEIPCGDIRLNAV
Sequence of UniProt P20309 (whole entry, looked up): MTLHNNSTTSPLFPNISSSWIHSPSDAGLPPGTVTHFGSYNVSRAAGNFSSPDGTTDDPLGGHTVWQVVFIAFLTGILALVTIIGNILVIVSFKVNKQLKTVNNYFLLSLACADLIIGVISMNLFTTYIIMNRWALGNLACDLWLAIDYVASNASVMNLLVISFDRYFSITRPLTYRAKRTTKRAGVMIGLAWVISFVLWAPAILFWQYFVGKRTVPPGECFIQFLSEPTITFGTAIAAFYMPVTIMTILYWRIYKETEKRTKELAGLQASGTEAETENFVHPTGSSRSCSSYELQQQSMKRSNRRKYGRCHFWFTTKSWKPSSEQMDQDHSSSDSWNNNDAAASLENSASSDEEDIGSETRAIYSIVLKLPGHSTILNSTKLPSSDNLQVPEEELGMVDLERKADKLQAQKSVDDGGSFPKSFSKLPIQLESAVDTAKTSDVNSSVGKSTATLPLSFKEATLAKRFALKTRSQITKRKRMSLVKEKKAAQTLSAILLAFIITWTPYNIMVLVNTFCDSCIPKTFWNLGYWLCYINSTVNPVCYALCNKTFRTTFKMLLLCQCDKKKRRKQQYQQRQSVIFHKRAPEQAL
Sequence of UniProt P21918 (whole entry, looked up): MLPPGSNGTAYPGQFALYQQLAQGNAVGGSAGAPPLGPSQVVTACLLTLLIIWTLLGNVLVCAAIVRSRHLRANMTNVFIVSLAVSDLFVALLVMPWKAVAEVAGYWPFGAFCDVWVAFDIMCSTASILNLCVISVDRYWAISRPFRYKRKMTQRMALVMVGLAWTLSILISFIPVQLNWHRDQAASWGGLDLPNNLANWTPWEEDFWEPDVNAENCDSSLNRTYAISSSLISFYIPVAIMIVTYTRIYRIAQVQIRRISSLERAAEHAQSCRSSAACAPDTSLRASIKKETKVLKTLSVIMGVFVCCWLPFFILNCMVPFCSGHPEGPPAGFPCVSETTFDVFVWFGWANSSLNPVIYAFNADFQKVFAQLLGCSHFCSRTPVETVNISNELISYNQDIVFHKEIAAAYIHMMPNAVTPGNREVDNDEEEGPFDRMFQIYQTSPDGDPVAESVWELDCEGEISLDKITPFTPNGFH
Sequence of UniProt P28335 (whole entry, looked up): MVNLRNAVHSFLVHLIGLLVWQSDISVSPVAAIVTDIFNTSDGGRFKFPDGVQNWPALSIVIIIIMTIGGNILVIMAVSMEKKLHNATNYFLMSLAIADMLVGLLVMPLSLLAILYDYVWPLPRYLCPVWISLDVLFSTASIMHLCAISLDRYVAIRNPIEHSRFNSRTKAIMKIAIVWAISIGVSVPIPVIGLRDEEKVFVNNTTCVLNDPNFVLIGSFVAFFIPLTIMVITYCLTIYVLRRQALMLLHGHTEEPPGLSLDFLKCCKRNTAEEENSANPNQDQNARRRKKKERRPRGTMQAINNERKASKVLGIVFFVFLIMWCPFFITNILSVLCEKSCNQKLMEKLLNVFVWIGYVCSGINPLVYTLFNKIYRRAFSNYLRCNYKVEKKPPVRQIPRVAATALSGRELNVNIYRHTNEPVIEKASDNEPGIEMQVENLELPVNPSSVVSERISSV
Sequence of UniProt P35372 (whole entry, looked up): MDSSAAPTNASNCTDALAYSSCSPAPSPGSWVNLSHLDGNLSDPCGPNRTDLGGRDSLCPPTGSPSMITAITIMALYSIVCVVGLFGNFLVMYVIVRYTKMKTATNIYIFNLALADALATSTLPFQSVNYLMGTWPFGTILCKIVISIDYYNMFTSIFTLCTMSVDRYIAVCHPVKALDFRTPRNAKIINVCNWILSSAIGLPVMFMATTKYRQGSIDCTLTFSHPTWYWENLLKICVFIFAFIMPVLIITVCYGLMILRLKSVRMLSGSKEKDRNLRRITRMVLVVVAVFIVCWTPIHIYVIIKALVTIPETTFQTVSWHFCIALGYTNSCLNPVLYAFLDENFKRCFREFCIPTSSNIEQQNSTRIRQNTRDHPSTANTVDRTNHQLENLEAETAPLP

Study 1
Cell line: Huh-7
Concentration: 10 µM
Time: 24 h
SMILES	viability [%]
COP(=O)(OC)OC=C(Cl)Cl	94.4
O=c1[nH]c2ccccc2n1C1CCN(CCCC(c2ccc(F)cc2)c2ccc(F)cc2)CC1	90.9
COP(=S)(OC)Oc1ccc(Sc2ccc(OP(=S)(OC)OC)cc2)cc1	104
CNC(C)C(O)c1ccccc1 (centres unmarked)	101
Cl[C@H]1[C@H](Cl)[C@@H](Cl)[C@@H](Cl)[C@H](Cl)[C@H]1Cl	103
C=CC[C@]1(O)CC[C@H]2[C@@H]3CCC4=CC(=O)CCC4=C3C=C[C@@]21C	88.3
Nc1ccncc1	97.6
COc1ccc2c(c1)[C@]13CCCC[C@@H]1[C@H](C2)N(C)CC3	101

Study 2
SMILES: CCNC(=O)c1cc2c(N3CCOC[C@@H]3C)ccnc2[nH]1
Read-out: ligand displacement
Technique: radioligand
Concentration: 10 µM
target	inhibition
Sodium-dependent noradrenaline transporter (SLC6A2, Homo sapiens, UniProt P23975)	40.2%
Sodium-dependent serotonin transporter (SLC6A4, Homo sapiens, UniProt P31645)	-17.3%
Muscarinic acetylcholine receptor M3 (CHRM3, Homo sapiens, UniProt P20309)	-11.6%
5-hydroxytryptamine receptor 2C (HTR2C, Homo sapiens, UniProt P28335)	-4.02%
Mu-type opioid receptor (OPRM1, Homo sapiens, UniProt P35372)	24.8%
D(1B) dopamine receptor (DRD5, Homo sapiens, UniProt P21918)	34.3%

Study 3
Structure (SMILES): CNC(=O)c1ccc(-c2cnn3ccc(C(=O)N(C)c4ccc(Cl)c(C(=O)OC)c4)cc23)cc1
Organism: Cryptosporidium parvum
Technique: qPCR
Host: IFN-γ knockout mouse
conditions	faecal oocyst shedding
1 mg/kg, day 3 post treatment	6.41 log oocysts/g faeces
3 mg/kg, day 3 post treatment	5.82 log oocysts/g faeces
3 mg/kg, day 5 post treatment	6.09 log oocysts/g faeces
10 mg/kg, day 5 post treatment	4.1 log oocysts/g faeces
1 mg/kg, day 1 post treatment	6.46 log oocysts/g faeces

Further values, each from its own experiment
Structure (SMILES)	system	conditions	endpoint	result
O=C1CCC(N2Cc3c(ccc4c3OCC43CCN(Cc4ccccc4)CC3)C2=O)C(=O)N1 (centres unmarked)	ICR mouse, male, plasma	intravenous, 1.0 mg/kg	CL	40.3 mL/min/kg

Repeated from above (study 1):
SMILES	viability [%]
C=CC[C@]1(O)CC[C@H]2[C@@H]3CCC4=CC(=O)CCC4=C3C=C[C@@]21C	88.3
Nc1ccncc1	97.6
